Results of several laboratories.
A part holds a random share of what one study measured.

Set 1
Target: RING finger protein unkempt homolog, zinc fingers 1-6, GST-SBP tag (UNK, Homo sapiens, UniProt Q9C0B0, residues 30-357)
Technique: RNA Bind-n-Seq
Molecule type: RNA
Matrix: in vitro
Tested at: not given
Notes: RNA with constant flanks, human and mouse sites, ends assumed
Reference: input RNA pool
Reading: higher = stronger binding
Construct (chain): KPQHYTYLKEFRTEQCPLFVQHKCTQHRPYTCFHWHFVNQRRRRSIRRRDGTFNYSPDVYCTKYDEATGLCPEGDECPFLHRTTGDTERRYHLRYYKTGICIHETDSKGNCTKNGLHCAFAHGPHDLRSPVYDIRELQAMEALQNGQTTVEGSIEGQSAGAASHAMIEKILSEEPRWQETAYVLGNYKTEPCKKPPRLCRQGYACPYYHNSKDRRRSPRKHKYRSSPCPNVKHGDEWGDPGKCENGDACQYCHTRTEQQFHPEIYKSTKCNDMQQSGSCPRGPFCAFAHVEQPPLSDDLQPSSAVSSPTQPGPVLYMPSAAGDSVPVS
Sequence | bound/input enrichment [ratio]
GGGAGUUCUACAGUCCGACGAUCAGCUGUGCCUGCUAAAAUGGAUCAGUGAGAGAGGUUCCUGGACCUGUGAACUUUGCUGUUAUAGAUACCAUGUUAUAGCCAUUAAAAUGAAACAACCUUGCCAGGUCUCAUUGUUCAUGACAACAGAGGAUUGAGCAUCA | 1.95
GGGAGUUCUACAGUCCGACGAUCAAUCCACCUUACAGAGAGGAAGACAUACCAGCUCCCCUAAAUUUGUAUGGCAAAACAAAAUUAGAUGGAGAAAAGGCUGUCCUGGAGAACAAUCUAGGAGCUGCUGUUUUGAGGAUUCCUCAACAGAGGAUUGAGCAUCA | 0.236
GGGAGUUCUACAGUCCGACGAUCAGAGCAGAUCGCGAGUCAGGUUCUGCACAGCCUCCGGCGAGGGCUGGCCCAUCGGAAGGCUCCUUGAACAGUGGGAGCAGGCCGGCCACCAUGACCGAGAACUCCACCUCCGCCCCGGCGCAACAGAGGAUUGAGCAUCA | 0.0763
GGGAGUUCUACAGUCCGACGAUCAGAGAAAAAAUUGAUUUUCAGCAUGCUCAUGGGUUACAAGAAUUGGAAUUUAUUCGAGGACAUUCUGAUACAGAAGCAGCAAGACUGUGUGUGGACCAGUGGCUAAAAAUGCCAGGACUCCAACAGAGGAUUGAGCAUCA | 0.172
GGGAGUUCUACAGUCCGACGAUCAAAGACAAGUGUGUCCUGUGUGGAGGACUAACCUUAGAGAGGAGGAGAUUCCACCUGGCCUAGCUUUAUGGCUGUCAAUUGUCUAUUUUGCCAUUUAUAAGCUGAAAGAAGGCACUAAAGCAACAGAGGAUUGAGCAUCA | 0.208
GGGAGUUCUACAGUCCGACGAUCGAGUUUUCCCCACCAAGGGGACCAUGCACAUGGUAGAAACAUUAGAUUCUGCAUUGACAGUAGCCUUUCCUUGGCCCGGGCCUGUGGUGGGAAGACGGGCAACAAGUAUACCCCACCAGGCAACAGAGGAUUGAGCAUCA | 0.226
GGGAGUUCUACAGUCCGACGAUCUUUCUACUGCAGCAAACGAUGCUAAGAAUUAAGGAUCCUAAGAAGUCCCUGGAUUUUUAUACGAGGGUUCUUGGACUGACCCUCCUGCAGAAGCUUGACUUCCCUGCUAUGAAGUUCUCGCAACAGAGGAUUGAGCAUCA | 0.292
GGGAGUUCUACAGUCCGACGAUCUGAACACAUGACGUCAGAUCAAAGAAAACAGAUCUUCUCCAGAUUGGCAGAAAGUUGAUAUAGGUGGACUUUUUUACAGGUCAGUUGAGGCAAAAAACUAUGGGUUUUUUCAGGUGAACCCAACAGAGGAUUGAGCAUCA | 0.314

Set 2
Target: Histone acetyltransferase KAT6A, both winged helices, GST fusion (KAT6A, Homo sapiens, UniProt Q92794, residues 1-181)
Technique: protein binding microarray
Molecule type: double-stranded DNA, one strand shown
Matrix: in vitro
Tested at: not given
Notes: 8-mer, flanks averaged, mean of 2 arrays, mostly near background
Reference: not given
Reading: higher = stronger binding
Target sequence (chain): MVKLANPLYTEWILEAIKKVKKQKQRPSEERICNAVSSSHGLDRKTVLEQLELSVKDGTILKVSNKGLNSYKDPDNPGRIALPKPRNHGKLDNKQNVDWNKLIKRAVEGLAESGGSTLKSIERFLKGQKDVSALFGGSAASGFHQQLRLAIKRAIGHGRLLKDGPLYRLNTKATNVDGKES
Sequence | E-score
ACGGGTTC | 0.212
AGGCGCGC | 0.372
AGTTGCCC | 0.00477
CAGCTTAA | -0.0297
TGACACAA | -0.0998
CTCGTTTC | -0.143
CATGGGCG | 0.0484
ACTGGTCT | -0.184
CTCTGCGA | 0.0261
ACGAATTC | -0.0531
CGGCACAG | 0.224
CAAACCCA | -0.08
TACCGTGA | 0.11
CTAGGACA | -0.104
ATAGCAGC | -0.0565
CTATCATC | 0.0115
AATTTGTG | 0.0448
ATAGAGTG | -0.131
CTCTTGCC | -0.141
GAATCAGC | -0.0493
CATTGCTA | -0.213
CAGGCAGG | -0.233
CCTCAGAC | -0.0544
GGCCCCCC | -0.0639
CAGATAAA | -0.05

Set 3
Target: RNA binding protein fox-1 homolog 2, RRM domain, GST-SBP tag (RBFOX2, Homo sapiens, UniProt O43251-10, residues 100-194)
Technique: RNA Bind-n-Seq
Molecule type: RNA
Matrix: in vitro
Tested at: 365 nM
Notes: natural RNA segment, single round, ends assumed
Reference: no-protein control
Reading: higher = stronger binding
Residues (chain): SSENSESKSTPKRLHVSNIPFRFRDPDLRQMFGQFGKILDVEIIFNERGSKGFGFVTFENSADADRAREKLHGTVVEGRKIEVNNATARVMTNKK
Sequence | RBNS enrichment (R)
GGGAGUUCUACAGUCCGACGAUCAUAAGGCAGUUGAACCUGAUGAGCAAGAAUUAUAACAGCAAGGAAACAUUAAUGCUUAGAAUUCUGAGAUCCAGCACAACUCAGUCUGUGGGAGCUCAGCUCGCUGCCCAUGGAAUUCUCGGGUGCCAA | 0.449
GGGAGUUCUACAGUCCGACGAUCACACUCCCGUGAGUCCUGUGGUCAGGGUUUCAGGAUAGGAGGUGGAGGUUUGGGUUAACGUGGGAAAAUGUUCUUGCUUUGACACAAGGAAGUACUGAGUGGCUGCACCGUGGAAUUCUCGGGUGCCAA | 0.463
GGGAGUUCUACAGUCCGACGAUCCCCUGGCAACCCUGAUUGAUUAUCUGAUCCUAUAAUUUUGCCUUUUCUAGAAUGUCAUAUAAAUGGAGUCACACUGAUGUCGCCUUUUGAGUCUGGCAUCUUUCCCUCAGUGGAAUUCUCGGGUGCCAA | 0.932
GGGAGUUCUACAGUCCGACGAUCGCUGCUGGAGAUUCAAAGCCCAACUGUGGGUCCGAGAGGGAAGCUGGCUGGGCUGGCUGAAGAAUGAAGACCACUGGACUCUCCGUUAAUCUCUAAGGGGUCUGCUCCCCUGGAAUUCUCGGGUGCCAA | 0.277
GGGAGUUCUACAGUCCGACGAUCAAACCACUAAAAUUAAGCUCUUACUACUUAGUCAACUAUCCUCAGCUGUAUUCGUACUCAAUUGUCAGUAUGGCACAGAUUACUGUAUUAAAAUAUUCUCCUUUCGUCUUUGGAAUUCUCGGGUGCCAA | 0.448
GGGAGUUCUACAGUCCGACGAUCGGAGCCCUUGAGAAGUUUAUCUAUGACUAUGAAACUGGCAACGUCACCCCAGAAUUACGGUCAGCCUUAUUCCCCUUCACCUCCCAGUGAACGCUAAGAAGUUUCAGACAUGGAAUUCUCGGGUGCCAA | 0.417
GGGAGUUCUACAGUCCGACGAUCGCUUCCUGCCCCUUGAGGUGGGCCAGGCUGGCUCCUGGCUAUGCAGGGAUCUCUGGUCCCCAGGAGACCUUGGGGGCCAGGCAGGUAAGGAUCAGGGGUGAUAGGGGAGAUGGAAUUCUCGGGUGCCAA | 0.404
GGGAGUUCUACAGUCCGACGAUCGGGGCAUGAUGGCAGUGUUUCUCUUUUAGGACAACACCCACGGAACACUCAAAGGCUGUGUGACUUGUCCUGUCCUGUGGCACCGAAGCCCUAGGUAGCUGGCUGUUUUGUGGAAUUCUCGGGUGCCAA | 0.735

Set 4
Target: Ras GTPase-activating protein-binding protein 1, full length (G3BP1, Homo sapiens, UniProt Q13283)
Chain of UniProt Q13283 (whole entry, looked up): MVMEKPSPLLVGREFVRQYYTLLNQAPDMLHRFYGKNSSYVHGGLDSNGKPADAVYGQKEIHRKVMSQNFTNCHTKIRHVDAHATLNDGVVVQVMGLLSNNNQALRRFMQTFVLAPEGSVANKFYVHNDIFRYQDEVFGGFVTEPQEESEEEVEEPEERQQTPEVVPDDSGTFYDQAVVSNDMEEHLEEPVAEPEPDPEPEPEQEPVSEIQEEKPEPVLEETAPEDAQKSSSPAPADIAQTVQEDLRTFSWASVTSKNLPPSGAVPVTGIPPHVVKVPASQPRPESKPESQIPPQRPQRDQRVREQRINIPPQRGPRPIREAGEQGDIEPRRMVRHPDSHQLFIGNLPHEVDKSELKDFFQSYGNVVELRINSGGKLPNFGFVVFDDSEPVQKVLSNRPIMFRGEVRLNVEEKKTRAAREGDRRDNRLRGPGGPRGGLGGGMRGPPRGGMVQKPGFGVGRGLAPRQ
Technique: RNA Bind-n-Seq
Molecule type: RNA
Matrix: in vitro
Tested at: 200 nM
Notes: whole 134-nt RNA, ends assumed
With: 150 mM KCl
Reference: input library
Reading: higher = stronger binding
Sequence | log2 enrichment
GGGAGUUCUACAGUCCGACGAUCUGGGAGGUUGAUUUUGUUUAUUUUUUUAGCUCAUUUCCAGGGGUGGGAAUUUUUUUUUAAUAUGUGUCAUGAAUAAAGUUGUUUUUGAAAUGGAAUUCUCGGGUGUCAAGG | -0.104
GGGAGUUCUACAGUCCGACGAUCUCCUGUGCUACACAUCGUAUGUACCGAAUCGGAAAAAAAGGAAAAAAAGGGAAAAAAAGGAAAGUAUUAUGUUACGCCGUUCGGAUCUGCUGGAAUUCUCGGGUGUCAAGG | -0.382
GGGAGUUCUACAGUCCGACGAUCCUGUGCUACACAUCGUAUGUACCGAAUCGGGGAAAAAAAGGGAAAAAAAGGGAAAAAAAGGGAAAGUAUUAUGUUACGCCGUUCGGAUCUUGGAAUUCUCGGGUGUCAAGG | -0.772
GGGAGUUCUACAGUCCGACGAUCUGGCCCUGGUGGCAUGCGGGGAGGAAGAGGUGGCCUCAUGGAUCGUGGUGGUCCCGGUGGAAUGUUCAGAGGUGGGCGUGGUGGAGACAGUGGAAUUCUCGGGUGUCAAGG | 0.762
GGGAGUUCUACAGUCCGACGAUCUCCUGUGCUACACAUCGUAUGUACCGAAUCAAACCCAAAUUUUUUUAAAUUUUUUUAAAAAAGUAUUAUGUUACGCCGUUCGGAUCUGCAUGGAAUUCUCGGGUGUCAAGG | 0.164
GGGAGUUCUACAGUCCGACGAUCAGUCCUGUGCUACACAUCGUAUGUACCGAAUCGGGAGGGUUUUUGGGUUUUUUUGGGAAAGUAUUAUGUUACGCCGUUCGGAUCUGCACUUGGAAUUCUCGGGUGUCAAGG | -0.387
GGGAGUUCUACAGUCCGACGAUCCUGUGCUACACAUCGUAUGUACCGAAUCGGGGUUUGGGGAAAAAAAGGGGAAAAAAAGGGGAAAGUAUUAUGUUACGCCGUUCGGAUCUGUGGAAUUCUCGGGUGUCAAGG | -0.213
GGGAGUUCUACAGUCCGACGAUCUCGUUCCCCCCGCCACGAGAAGAAGAAGAAGGUCCGUAAAUACUGGGACGUGCCACCCCCAGGCUUUGAGCACAUCACCCCAAUGCAGUAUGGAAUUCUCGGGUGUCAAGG | 0.708
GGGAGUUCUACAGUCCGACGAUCCAAGUCCUGUGCUACACAUCGUAUGUACCGAAUCGGAAAAGGGAAAAGGGAAAAGGAAAGUAUUAUGUUACGCCGUUCGGAUCUGCACUUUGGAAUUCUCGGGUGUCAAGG | -0.876
